Published values of several laboratories.
Every numbered part comes from another study and shows a few of its results, in no order. “And” joins repeats or separate records; there may be more than shown.
Chain of UniProt P49674 (whole entry, looked up): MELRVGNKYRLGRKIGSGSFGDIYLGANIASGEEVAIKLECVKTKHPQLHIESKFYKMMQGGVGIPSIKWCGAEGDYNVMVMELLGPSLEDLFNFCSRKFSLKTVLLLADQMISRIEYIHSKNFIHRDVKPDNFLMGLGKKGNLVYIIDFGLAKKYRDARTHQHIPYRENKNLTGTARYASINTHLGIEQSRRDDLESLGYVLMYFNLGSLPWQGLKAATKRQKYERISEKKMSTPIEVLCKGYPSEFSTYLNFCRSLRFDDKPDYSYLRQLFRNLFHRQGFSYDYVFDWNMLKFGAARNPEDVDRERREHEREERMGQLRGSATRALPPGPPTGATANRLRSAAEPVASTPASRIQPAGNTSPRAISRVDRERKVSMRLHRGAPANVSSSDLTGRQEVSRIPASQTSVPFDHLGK
Chain of UniProt Q96SB4 (whole entry, looked up): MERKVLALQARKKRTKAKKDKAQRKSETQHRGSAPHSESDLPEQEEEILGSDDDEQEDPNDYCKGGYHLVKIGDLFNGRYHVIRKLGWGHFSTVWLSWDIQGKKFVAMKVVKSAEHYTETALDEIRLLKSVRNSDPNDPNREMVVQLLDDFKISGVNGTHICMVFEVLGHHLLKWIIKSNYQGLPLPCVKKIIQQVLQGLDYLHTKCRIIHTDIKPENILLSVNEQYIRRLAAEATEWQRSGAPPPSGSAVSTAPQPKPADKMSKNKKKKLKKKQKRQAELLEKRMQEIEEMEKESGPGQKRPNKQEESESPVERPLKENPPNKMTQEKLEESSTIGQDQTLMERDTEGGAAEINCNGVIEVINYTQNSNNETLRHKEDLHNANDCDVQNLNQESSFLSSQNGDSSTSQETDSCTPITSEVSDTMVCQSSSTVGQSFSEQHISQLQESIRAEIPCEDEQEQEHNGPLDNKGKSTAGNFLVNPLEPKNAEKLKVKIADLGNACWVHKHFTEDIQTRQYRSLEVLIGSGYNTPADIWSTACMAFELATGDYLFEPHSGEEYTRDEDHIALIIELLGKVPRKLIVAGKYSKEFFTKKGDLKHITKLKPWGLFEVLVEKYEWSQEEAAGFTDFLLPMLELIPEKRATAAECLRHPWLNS
Chain of UniProt Q15349 (whole entry, looked up): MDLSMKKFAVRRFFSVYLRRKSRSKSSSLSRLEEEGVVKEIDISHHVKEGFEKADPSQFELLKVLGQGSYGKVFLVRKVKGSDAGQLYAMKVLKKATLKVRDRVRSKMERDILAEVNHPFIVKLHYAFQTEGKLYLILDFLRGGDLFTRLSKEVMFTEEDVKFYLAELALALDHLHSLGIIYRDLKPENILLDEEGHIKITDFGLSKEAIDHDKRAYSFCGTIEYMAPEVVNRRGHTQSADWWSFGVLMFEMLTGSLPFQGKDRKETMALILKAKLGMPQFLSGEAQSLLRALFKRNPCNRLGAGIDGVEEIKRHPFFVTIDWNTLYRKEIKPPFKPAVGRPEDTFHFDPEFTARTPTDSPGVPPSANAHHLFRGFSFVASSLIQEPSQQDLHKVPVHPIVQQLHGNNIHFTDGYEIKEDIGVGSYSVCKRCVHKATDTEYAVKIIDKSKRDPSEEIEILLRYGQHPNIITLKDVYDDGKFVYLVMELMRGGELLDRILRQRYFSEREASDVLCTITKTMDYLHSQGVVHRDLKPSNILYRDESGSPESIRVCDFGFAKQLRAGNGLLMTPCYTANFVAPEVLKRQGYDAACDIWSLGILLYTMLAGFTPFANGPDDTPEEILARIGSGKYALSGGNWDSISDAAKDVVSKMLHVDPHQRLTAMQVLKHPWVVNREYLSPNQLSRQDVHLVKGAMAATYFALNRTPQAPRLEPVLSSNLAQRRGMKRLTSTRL
Chain of UniProt P49840 (whole entry, looked up): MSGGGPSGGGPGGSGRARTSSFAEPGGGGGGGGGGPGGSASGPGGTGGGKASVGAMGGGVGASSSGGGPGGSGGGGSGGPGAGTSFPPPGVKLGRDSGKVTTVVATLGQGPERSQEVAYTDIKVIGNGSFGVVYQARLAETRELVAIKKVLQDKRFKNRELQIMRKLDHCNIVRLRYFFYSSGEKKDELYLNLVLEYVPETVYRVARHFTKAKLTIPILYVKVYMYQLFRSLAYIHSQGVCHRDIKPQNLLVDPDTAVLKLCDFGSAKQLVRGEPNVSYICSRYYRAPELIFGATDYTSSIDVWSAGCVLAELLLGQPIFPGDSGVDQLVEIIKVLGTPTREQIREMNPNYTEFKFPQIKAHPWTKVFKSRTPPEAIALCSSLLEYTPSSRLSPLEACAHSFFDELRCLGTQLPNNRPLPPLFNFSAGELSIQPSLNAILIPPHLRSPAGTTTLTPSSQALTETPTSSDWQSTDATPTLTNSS
Chain of UniProt O14936 (whole entry, looked up): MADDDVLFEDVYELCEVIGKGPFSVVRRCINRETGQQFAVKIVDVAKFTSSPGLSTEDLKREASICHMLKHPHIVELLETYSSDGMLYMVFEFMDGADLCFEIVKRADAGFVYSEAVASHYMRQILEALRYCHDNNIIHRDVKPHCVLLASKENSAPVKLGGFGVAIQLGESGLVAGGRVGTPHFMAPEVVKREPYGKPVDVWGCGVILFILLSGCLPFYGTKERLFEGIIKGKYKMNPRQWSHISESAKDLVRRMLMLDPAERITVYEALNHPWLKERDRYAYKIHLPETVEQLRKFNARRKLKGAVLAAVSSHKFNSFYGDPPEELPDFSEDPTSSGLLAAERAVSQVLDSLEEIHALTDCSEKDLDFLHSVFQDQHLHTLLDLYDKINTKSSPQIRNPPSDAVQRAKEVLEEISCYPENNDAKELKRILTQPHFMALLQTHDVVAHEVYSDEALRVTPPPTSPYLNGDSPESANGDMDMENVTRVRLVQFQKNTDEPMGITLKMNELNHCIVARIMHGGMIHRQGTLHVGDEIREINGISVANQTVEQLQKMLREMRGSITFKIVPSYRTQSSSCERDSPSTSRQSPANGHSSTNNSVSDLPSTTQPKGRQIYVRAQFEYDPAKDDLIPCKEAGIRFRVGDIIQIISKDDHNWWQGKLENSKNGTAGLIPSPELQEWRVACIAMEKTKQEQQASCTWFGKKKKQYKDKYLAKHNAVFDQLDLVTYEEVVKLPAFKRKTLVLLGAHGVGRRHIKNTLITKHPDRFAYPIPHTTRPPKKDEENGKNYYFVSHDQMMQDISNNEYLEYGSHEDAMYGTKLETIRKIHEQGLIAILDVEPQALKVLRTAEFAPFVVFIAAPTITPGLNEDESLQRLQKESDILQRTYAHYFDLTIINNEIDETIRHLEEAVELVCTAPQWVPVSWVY

Series 1
Target: Serine/threonine-protein kinase MARK1 (MARK1, Homo sapiens, UniProt Q9P0L2)
Chain of UniProt Q9P0L2 (whole entry, looked up): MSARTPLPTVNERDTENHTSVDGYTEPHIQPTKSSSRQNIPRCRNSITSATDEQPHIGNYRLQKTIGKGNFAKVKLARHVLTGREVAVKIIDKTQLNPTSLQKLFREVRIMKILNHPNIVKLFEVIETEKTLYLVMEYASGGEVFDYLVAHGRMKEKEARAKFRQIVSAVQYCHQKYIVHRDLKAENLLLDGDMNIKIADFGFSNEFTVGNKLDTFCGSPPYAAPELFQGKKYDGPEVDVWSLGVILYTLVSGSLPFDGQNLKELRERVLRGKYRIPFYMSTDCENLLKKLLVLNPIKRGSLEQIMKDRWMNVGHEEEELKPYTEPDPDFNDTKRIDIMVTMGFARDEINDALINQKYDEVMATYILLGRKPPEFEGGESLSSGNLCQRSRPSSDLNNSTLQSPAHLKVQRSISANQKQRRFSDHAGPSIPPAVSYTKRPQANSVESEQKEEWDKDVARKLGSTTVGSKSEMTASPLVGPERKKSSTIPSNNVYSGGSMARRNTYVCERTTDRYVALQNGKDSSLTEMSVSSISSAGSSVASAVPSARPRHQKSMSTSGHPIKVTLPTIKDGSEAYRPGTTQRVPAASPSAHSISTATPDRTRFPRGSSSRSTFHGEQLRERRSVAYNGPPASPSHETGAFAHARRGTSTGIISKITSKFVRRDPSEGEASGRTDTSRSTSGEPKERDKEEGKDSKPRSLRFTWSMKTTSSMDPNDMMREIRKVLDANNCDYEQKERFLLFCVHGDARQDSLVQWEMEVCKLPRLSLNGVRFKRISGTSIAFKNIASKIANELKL
Effect on: enzyme activity
Mode: inhibitor
Tested at: 0.5 µM
Baseline: control
Measurement: remaining activity
COc1cc2c(Nc3ccc(Br)cc3F)ncnc2cc1OCC1CCN(C)CC1: 83.7%
Clc1ccc(Nc2nnc(Cc3ccncc3)c3ccccc23)cc1: 124%
O=C(O)/C=C/c1cc(Br)c(Br)c(Br)c1Br: 93.7%
Nc1nc(Nc2ccc(S(N)(=O)=O)cc2)nn1C(=S)Nc1c(F)cccc1F: 2.68%

Series 2
Species: human
Medium: microsomes or S9
Tested at: 2 µM
Time: 0.5 h
Measurement: remaining compound
Cn1ccnc1/C=N/Nc1nncc2ccccc12: 22.5%
Oc1ccc([C@H]2Oc3cc(O)cc(O)c3C[C@H]2O)cc1: 91.5%
CN(C)c1ccc2c3c(ccc(N(C)C)c13)C(=O)OC2: 70.7%
CCOC(=O)COc1ccc(-c2noc(-c3ccc(OCc4ccc(Br)cc4)cc3)c3cccc2-3)cc1: 97.3%
Cn1c(=O)[nH]c(=O)c2c1nc(NC1CCCCC1)n2CC(=O)NC1CCCCC1: 16.1%
CN(C)c1nc(N2CCOC3(CCCC3)C2)ncc1F: 1.32%
Cc1ccccc1N1CCN(C2CCc3occc3C2=O)CC1 (centres unmarked): 0.192%
O=C(c1c(OCC2CC2)cc(=O)n2c1CCCCC2)N1CCc2ccccc2C1: 12.8%
COc1ccc(NC(=O)c2cc3c(=O)n4cc(C)ccc4nc3n2Cc2ccccc2)c(OC)c1: 90.1%
Cc1ccc(C)c(C[S+]([O-])Cc2cc(=O)n(C)c(=O)n2C)c1 (centres unmarked): 70.2%
c1ccc(-c2nc3ccccc3nc2N2CCCC2)cc1: 22.7%
Cc1ccccc1N(CC(=O)N1CCN(C/C=C/c2ccccc2)CC1)S(C)(=O)=O: 61.5%
Cc1cccc2c1ccn2CC(=O)N1CCNC(=O)C1: 80.2%
CC(C)OC(=O)c1ccc(NC(=O)CCCC(=O)O)cc1: 99.1%

Series 3
Cell line: mouse MPNST tumor cells
Technique: high-content immunofluorescence imaging
Measured: nuclear SOX9
Tested at: 10 µM
Time: 12 h
Notes: mean of 2 replicates
Baseline: DMSO control
Reading: higher = more nuclear SOX9
Measurement: nuclear SOX9 intensity
C[C@]12C=CC(=O)N[C@@H]1CC[C@@H]1[C@@H]2CC[C@]2(C)[C@@H](C(=O)Nc3cc(C(F)(F)F)ccc3C(F)(F)F)CC[C@@H]12: 94.1 % of DMSO
Cn1c(=O)c2cc(C(=O)NCCCN3CCCCCC3)sc2c2ccccc21: 197 % of DMSO
CCC[C@@H]1C[C@@H](C(=O)N[C@@H]([C@H]2O[C@H](SC)[C@H](O)[C@@H](O)[C@H]2O)[C@@H](C)O)N(C)C1: 101 % of DMSO
CC(=O)N[C@@H](Cc1c[nH]c2ccccc12)C(=O)OCc1cc(C(F)(F)F)cc(C(F)(F)F)c1: 84.3 % of DMSO
O=C(Nc1ccc(Oc2ccc(Cl)cn2)c(Cl)c1)c1ccccn1: 119 % of DMSO
Fc1ccc(C(c2ccc(F)cc2)N2CCN(C/C=C/c3ccccc3)CC2)cc1: 132 % of DMSO and 163 % of DMSO
CCn1c(=O)n(C2=C(CO)CN(CC3CCCCCCC3)CC2)c2ccccc21: 142 % of DMSO
CCCCN(CCCC)CCC(O)c1cc2c(Cl)cc(Cl)cc2c2cc(C(F)(F)F)ccc12 (centres unmarked): 133 % of DMSO and 151 % of DMSO

Series 4
SMILES: COc1ccc2c(c1)O[C@H](c1ccc(OC)c(OC)c1)C[C@@H]2NC(=O)C1(c2ccc3c(c2)OC(F)(F)O3)CC1
Effect on: cell-free assay
Technique: competition with immobilised ligand
Tested at: 1 µM
Measurement: remaining binding
Tyrosine-protein kinase Tec (TEC, Homo sapiens, UniProt P42680): 100%
SRSF protein kinase 1 (SRPK1, Homo sapiens, UniProt Q96SB4): 100%
Epidermal growth factor receptor (EGFR, Homo sapiens, UniProt P00533, L858R/T790M): 96%
Serine/threonine-protein kinase RIO1 (RIOK1, Homo sapiens, UniProt Q9BRS2): 100%
Serine/threonine-protein kinase Nek5 (NEK5, Homo sapiens, UniProt Q6P3R8): 100%
Serine/threonine-protein kinase SIK2 (SIK2, Homo sapiens, UniProt Q9H0K1): 100%
Tyrosine-protein kinase ABL1, phosphorylated (ABL1, Homo sapiens, UniProt P00519, Y253F): 93%
Glycogen synthase kinase-3 alpha (GSK3A, Homo sapiens, UniProt P49840): 100%
Mitogen-activated protein kinase 14 (MAPK14, Homo sapiens, UniProt Q16539): 90%
Receptor-type tyrosine-protein kinase FLT3 (FLT3, Homo sapiens, UniProt P36888, ITD): 100%
Hepatocyte growth factor receptor (MET, Homo sapiens, UniProt P08581, M1250T): 89%
Ribosomal protein S6 kinase alpha-2, N-terminal kinase domain (RPS6KA2, Homo sapiens, UniProt Q15349): 100%
Peripheral plasma membrane protein CASK (CASK, Homo sapiens, UniProt O14936): 85%
Ephrin type-B receptor 1 (EPHB1, Homo sapiens, UniProt P54762): 100%
Casein kinase I isoform epsilon (CSNK1E, Homo sapiens, UniProt P49674): 100%

Repeated from above (series 4):
Serine/threonine-protein kinase SIK2 (SIK2, Homo sapiens, UniProt Q9H0K1): 100%
Tyrosine-protein kinase ABL1, phosphorylated (ABL1, Homo sapiens, UniProt P00519, Y253F): 93%
Glycogen synthase kinase-3 alpha (GSK3A, Homo sapiens, UniProt P49840): 100%
Mitogen-activated protein kinase 14 (MAPK14, Homo sapiens, UniProt Q16539): 90%
Receptor-type tyrosine-protein kinase FLT3 (FLT3, Homo sapiens, UniProt P36888, ITD): 100%
Hepatocyte growth factor receptor (MET, Homo sapiens, UniProt P08581, M1250T): 89%
